Results gathered from unrelated publications.
Lines come from different studies, so protocols differ. Numbers after ± are the reported error.

| SMILES | assay | system | conditions | how to read | quantity | value |
| --- | --- | --- | --- | --- | --- | --- |
| COc1cc2c(cc1OC)C(c1ccc(F)cc1F)N(CCCOc1ccc(CCC(=O)O)cc1)CC2 (stereo not drawn) |  | ICR mice, male and female | oral, 1 week |  | LD50 | > 2000 mg/kg |
| C[C@H](O)[C@@H](NC(=O)[C@H]1CCCN1C(=O)[C@@H](CCCCN)NC(=O)[C@@H](CO)NC(=O)[C@@H](Cc1ccc(O)cc1)NC(=O)[C@@H](CC(N)=O)NC(=O)CCOCCOCCOCCNC(=O)CN1CCN(CC(=O)O)CCN(CC(=O)O)CCN(CC(=O)O)CC1)C(=O)N[C@H](CC(=O)O)C(=O)N[C@H](CCCNC(=N)N)C(=O)N[C@H](CCC(N)=O)C(=O)N[C@H](Cc1ccc(O)cc1)C(=O)N[C@H](Cc1c[nH]cn1)C(=O)N[C@H](Cc1ccccc1)C(N)=O [copper-64 labelled] | refers to: red blood cells, haematocrit, platelets | C57BL/6J mice | intravenous, 3 mCi per mouse, days 1, 15, 30 | reference: control | haematological parameters | no effect |
| O=C(O)CC[C@H](NC(=O)O[C@@H](CCCCNC(=O)c1ccc([18F])cc1)C(=O)O)C(=O)O |  | mouse, PC-3 PIP/flu xenografts, heart | 180 min |  | tissue uptake | 0.07 ± 0.04 %ID/g |
| CC1(O)CC23CC(O)C4(O)C(C5OC5C4(C)C)C(C)(O)C2CCC1C3O (stereo not drawn) |  | ICR mouse | oral, 7 days |  | LD50 | 3.62 mg/kg |
| COC(=O)C[C@](O)(CCCC(C)(C)OC(C)=O)C(=O)O[C@@H]1C(OC)=C[C@]23CCCN2CCc2cc4c(cc2[C@H]13)OCO4 |  | CD1 mouse, bone marrow | subcutaneous, 1 mg/kg, 8 h, below quantification limit 1.00 ng/mL |  | tissue concentration | not detected |
| CCN(Cc1ccccc1)C(=O)CCc1nc(CN2CCN(C(=O)Cc3ccc(OC)c(OC)c3)CC2)no1 |  | rat, liver | intravenous, 1 mg/kg, 30 min, single dose |  | concentration | 16 ng/g |
| CC(CCC(=O)NCC(=O)O)C1CCC2C3CCC4CC(OC5OC(C(=O)O)C(O)C(O)C5O)CCC4(C)C3CC(O)C12C (stereo not drawn) |  | human, SLCO1B1 *14/*35, plasma | geometric mean, sex-adjusted |  | plasma concentration | 58.7 ng/mL |
| C[C@@H]1CC[C@H]2[C@@H](C)CO[C@@H]3O[C@@]4(C)CC[C@@H]1[C@]32OO4 | refers to: compound | rat, plasma | 50.0 ng/mL spiked, 24 h, autosampler at 4 °C |  | stability accuracy | 93.4% |
| CC(=O)NC(Cc1ccc(Br)c(Cl)c1)C(=O)N[C@@H](C)C(=O)N1CCC[C@H]1C(=O)N1CCC[C@H]1C(=O)N[C@@H](CCC(=O)O)C(=O)N[C@@H](Cc1c[nH]cn1)C(=O)N[C@@H](CO)C(=O)N[C@H](C(=O)N[C@@H](C)C(N)=O)[C@@H](C)OP(=O)(O)O (stereo partly drawn) | metabolic stability | human, liver microsomes | 1 µM, pH 7.4 |  | half-life | 36 min |
| O=c1c2cc(Cl)ccc2sc2c(NCc3ccccc3)nc3ccccc3c12 |  | BALB/c nude mice | i.p., 10 mg/kg |  | body weight | 21.1 ± 0.35 g |
| CC[C@H](C)[C@@H]1NC(=O)[C@H](CCCCN)NC(=O)[C@H](CCCCN)NC(=O)[C@H](Cc2ccc(O)cc2)NC(=O)[C@H](CC(C)C)NC(=O)[C@@H]2CCCN2C(=O)[C@H](C)NC(=O)CNC(=O)CNC(=O)[C@H](CO)NC(=O)CNC(=O)CNC(=O)[C@H](CO)NC(=O)[C@H](CCCCN)NC(=O)[C@H](CC(C)C)NC(=O)[C@H](CC(C)C)NC(=O)[C@H](CCCCN)NC(=O)[C@H](CCCNC(=N)N)NC(=O)[C@H]([C@@H](C)CC)NC(=O)[C@H]([C@@H](C)CC)NC(=O)[C@H](CCCCN)NC(=O)[C@H](CCCCN)NC(=O)[C@H](Cc2ccc(O)cc2)NC(=O)[C@H](CC(C)C)NC(=O)[C@@H]2CCCN2C(=O)CNC(=O)CNC(=O)[C@@H](NC(=O)CN)CSSC[C@@H](C(N)=O)NC(=O)[C@H](CC(C)C)NC(=O)[C@H](CCCCN)NC(=O)[C@H](CCCNC(=N)N)NC(=O)[C@H]([C@@H](C)CC)NC1=O | hemolysis | uninfected human erythrocytes | 1 h |  | HC10 | 6.3 ± 1 µM |
| O=C(c1ccc(F)cc1)C1CCN(C2Cc3c(cccc3OCC[18F])CC2O)CC1 (single isomer, unassigned; (-)) |  | Sprague-Dawley rat, male, muscle | intravenous, dose not given, 5 min |  | tissue uptake | 0.171 ± 0.055 %ID/g |
| CC(C)C[C@H](NC(=O)[C@H](CCCCN)NC(=O)[C@H](CC(C)C)NC(=O)[C@H](CC(C)C)NC(=O)[C@H](CCCCN)NC(=O)[C@H](CCCCN)NC(=O)[C@H](CC(C)C)NC(=O)[C@H](CC(C)C)NC(=O)[C@H](CCCCN)NC(=O)[C@H](CC(C)C)NC(=O)[C@H](CC(C)C)NC(=O)[C@H](CCCCN)NC(=O)[C@H](CCCCN)NC(=O)[C@H](CC(C)C)NC(=O)[C@@H](N)CSSC[C@H](N)C(=O)N[C@@H](CC(C)C)C(=O)N[C@@H](CCC(=O)O)C(=O)N[C@@H](Cc1c[nH]cn1)C(=O)N[C@@H](CC(C)C)C(=O)N[C@@H](CC(C)C)C(=O)N[C@@H](CCC(=O)O)C(=O)N[C@@H](Cc1c[nH]cn1)C(=O)N[C@@H](CC(C)C)C(=O)N[C@@H](CCC(=O)O)C(=O)N[C@@H](Cc1c[nH]cn1)C(=O)N[C@@H](CC(C)C)C(=O)N[C@@H](CC(C)C)C(=O)N[C@@H](CCC(=O)O)C(=O)N[C@@H](Cc1c[nH]cn1)C(N)=O)C(N)=O | chemical stability, HPLC | mouse, serum | 8 h |  | compound remaining | ~79.2% |
| N=C(N)NCc1ccc(C(=O)NCCCC[C@H](NC(=O)N[C@@H](CCC(=O)O)C(=O)O)C(=O)O)cc1[211At] |  | SCID mouse, PC-3 xenografts, brain | 2 h |  | tissue uptake | 0.1 ± 0.03 %ID/g |
| CC[C@H](C)C(=O)N1CCC(NC(=O)Nc2ccc(OC(F)(F)F)c(F)c2)CC1 |  | healthy volunteers | oral, 24 mg single dose |  | subjects with related TEAE | 0% |
| CSCC[C@@H]1NC(=O)[C@@H]2CSSC[C@H](NC(=O)[C@H](CO)NC(=O)[C@H](C)N)C(=O)N[C@@H](CCCNC(=N)N)C(=O)N[C@@H]([C@@H](C)O)C(=O)N3CCC[C@H]3C(=O)N[C@@H](CCCCN)C(=O)N[C@@H](CC(=O)O)C(=O)N[C@H]3CSSC[C@H](NC(=O)[C@H](CCCCN)NC(=O)[C@H](CCCNC(=N)N)NC(=O)[C@H](CC(N)=O)NC1=O)C(=O)N[C@@H](CCCCN)C(=O)N[C@H]1CSSC[C@H](NC(=O)[C@@H]4CCCN4C(=O)[C@H](CC(=O)O)NC(=O)[C@H](C)NC3=O)C(=O)N[C@@H](C)C(=O)N[C@@H](CCCCN)C(=O)N[C@@H](CCC(=O)O)C(=O)N[C@@H]([C@@H](C)O)C(=O)NCC(=O)N[C@@H](CSSC[C@@H](C(N)=O)NC(=O)[C@H](CCCNC(=N)N)NC(=O)[C@H](CC(N)=O)NC1=O)C(=O)N1CCC[C@H]1C(=O)N[C@@H](Cc1ccc(O)cc1)C(=O)NCC(=O)N[C@@H](CCCCN)C(=O)N2 |  | DA rat pristane-induced arthritis, serum | subcutaneous, 0.1 mg/kg once weekly, 21 days |  | Calcium | 7.04 mg/dL |
| CC(C)[C@H](NC(=O)CNC(=O)[C@H](CCC(N)=O)NC(=O)[C@H](C)N)C(=O)O |  | human | 10 mg/kg single dose |  | subjects given concomitant medication | 0% |
| CCOC(=O)C(Cc1cccc(O)c1)OC(=O)C=Cc1ccc(O)c(O)c1C=Cc1ccc(O)c(O)c1 (stereo not drawn) |  | mice | oral |  | LD50 | > 2000 mg/kg |
| CN(C)CCN(Cc1ccccc1)C(=O)c1cc(-c2ccc(F)cc2)n2nc(C(C)(C)C)cc2n1 |  | C57BL/6 x SJL wild-type mouse | subcutaneous, 35 mg/kg |  | blood concentration | ~3000 nM |
| CCOP(=O)(OCC)OCCCCOC(=O)CC1=C(C)C(=Cc2ccc([S+](C)[O-])cc2)c2ccc(F)cc21 (stereo not drawn) | HPLC | nude mice, orthotopic lung tumour, tumour | inhalation, dose not given |  | drug level | > 10 nmol/g |
| CC[C@@H]1C[C@]1(NC(=O)[C@@H]1C[C@@]2(CN1C(=O)[C@@H](NC(=O)[C@@H](NC(=O)[C@@H]1CCCCN1C(C)C)C1CCCCC1)C(C)(C)C)C(C)(C)C21CCC1)C(=O)NS(=O)(=O)N1CCCC1 |  | human | together with: ritonavir co-administration |  | tolerability | not toxic |
| Cc1ccccc1CN1CCC(O)(c2ccc(Cl)c(C(F)(F)F)c2)CC1 |  | female BALB/c mouse, serum | intraperitoneal, 50 mg/kg |  | intercompartmental clearance | 4.9 mL/min |
| [2H]C([2H])([2H])C([2H])([2H])C([2H])([2H])OC(C(=O)OC1CCNCC1)(c1ccccc1)c1ccccc1 |  | healthy Japanese male | oral, 8 to 18 mg once daily, 16 days |  | adverse drug reaction incidence | 2.9% |
| CC(C)C[C@@H](NC(=O)[C@@H](CCCNC(=N)N)NC(=O)[C@@H](Cc1c[nH]cn1)NC(=O)[C@@H](Cc1c[nH]c2ccccc12)NC(=O)[C@@H](Cc1c[nH]cn1)NC(=O)[C@@H](Cc1ccccc1)NC(=O)[C@H](NC(=O)[C@@H](Cc1ccc(O)cc1)NC(=O)CNC(=O)CNC(=O)CCOCCOCCOCCNC(=O)CN1CCN(CC(=O)O)CCN(CC(=O)O)CC1)[C@H](C)O)C(=O)N[C@H](CC(N)=O)C(=O)N1CCC[C@@H]1C(=O)O [gallium-68 labelled] |  | C57BL/6 mice, male | intravenous, 1.85 MBq, 60 min | reference: tumour over blood | tissue ratio | 5.59 ± 0.83 |
| CC[C@H](C)[C@H](NC(=O)[C@H](CC(=O)O)NC(=O)[C@H](CO)NC(=O)[C@H](CCC(N)=O)NC(=O)[C@H](C)NC(=O)[C@H](CC(=O)O)NC(=O)[C@H](CCC(=O)O)NC(=O)[C@H](Cc1c[nH]cn1)NC(=O)[C@H](Cc1ccc(O)cc1)NC(=O)[C@H](C)NC(=O)[C@H](CC(=O)O)NC(=O)[C@H](CCC(=O)O)NC(=O)[C@H](Cc1c[nH]cn1)NC(=O)[C@H](Cc1ccc(O)cc1)NC(=O)[C@H](C)NC(=O)[C@H](CC(=O)O)NC(=O)[C@H](CCC(=O)O)NC(=O)[C@H](Cc1c[nH]cn1)NC(=O)[C@H](Cc1ccc(O)cc1)NC(=O)[C@H](C)NC(=O)[C@H](CC(=O)O)NC(=O)[C@H](CCC(=O)O)NC(=O)[C@H](Cc1c[nH]cn1)NC(=O)[C@H](Cc1ccc(O)cc1)NC(=O)[C@H](C)NC(=O)[C@H](CC(=O)O)NC(=O)[C@H](CCC(=O)O)NC(=O)[C@H](Cc1c[nH]cn1)NC(=O)[C@@H](N)Cc1ccc(O)cc1)C(=O)N[C@H](C(=O)N[C@@H](C)C(=O)N[C@@H](Cc1c[nH]cn1)C(=O)N[C@@H](CC(C)C)C(=O)N[C@@H](CC(C)C)C(=O)O)C(C)C |  | normal mouse | dose not given |  | RDW | 24.6 ± 3.1% |
| OC1(C(F)(F)F)CCN(c2nc(Nc3ccnc(C(F)(F)F)c3)nc(-c3cccc(C(F)(F)F)n3)n2)C1 (stereo not drawn) | respiratory system | Sprague-Dawley rat, both sexes | oral |  | NOAEL | 50 mg/kg |
| CC(C)[C@H](NC(=O)CNC(=O)[C@H](CCC(N)=O)NC(=O)[C@H](C)N)C(=O)O |  | healthy male volunteers | intravenous, 90 mg/kg/h, 2 h, together with: LPS 2 ng/kg |  | subjects with mild AE | 37.5% |
| CN(C)C(CNC(=O)Nc1cc(C(F)(F)F)ccc1N1CCOCC1)c1ccncc1 (stereo not drawn) |  | mouse, serum | intraperitoneal, 120 mg/kg single dose |  | serum potassium | 7.3 mmol/L |
| CSCC[C@H](NC(=O)CNC(=O)[C@H](CC(=O)O)NC(=O)[C@@H](NC(=O)[C@@H](NC(=O)[C@@H](NC(=O)CNC(=O)[C@H](CCC(N)=O)NC(=O)[C@H](CCSC)NC(=O)[C@H](CC(=O)O)NC(=O)[C@H](C)NC(=O)[C@H](C)NC(=O)[C@@H](NC(=O)[C@H](CO)NC(=O)[C@@H](N)CC(C)C)[C@@H](C)O)C(C)C)C(C)C)[C@@H](C)O)C(=O)N[C@@H](C)C(=O)N[C@@H](CO)C(=O)NCC(=O)N[C@@H](CC(C)C)C(=O)N[C@@H](CC(=O)O)C(=O)N[C@@H](CCCCN)C(=O)N[C@@H](CC(=O)O)C(=O)N[C@@H](Cc1ccc(O)cc1)C(=O)N[C@@H](CC(C)C)C(=O)N[C@@H](CCCCN)C(=O)N1CCC[C@H]1C(=O)N[C@@H](CC(=O)O)C(=O)N[C@@H](CC(=O)O)C(=O)O |  | p53-positive advanced solid tumour patients | IV, 12 doses |  | MTD, highest dose level | > 50 mg/kg total |
| COc1ccc([N+]#[C][Re]2(=[C]=O)(=[C]=O)(=[C]=O)[N]3C(C)=CC=c4ccc5c(c43)[N]2C(C)=CC=5)cc1.O=S(=O)([O-])C(F)(F)F | cyclic voltammetry | acetonitrile | irreversible reduction |  | cathodic peak potential | -1.26 V vs SCE |

A few entries again:
| SMILES | assay | system | conditions | how to read | quantity | value |
| --- | --- | --- | --- | --- | --- | --- |
| CCOC(=O)C(Cc1cccc(O)c1)OC(=O)C=Cc1ccc(O)c(O)c1C=Cc1ccc(O)c(O)c1 (stereo not drawn) |  | mice | oral |  | LD50 | > 2000 mg/kg |
| OC1(C(F)(F)F)CCN(c2nc(Nc3ccnc(C(F)(F)F)c3)nc(-c3cccc(C(F)(F)F)n3)n2)C1 (stereo not drawn) | respiratory system | Sprague-Dawley rat, both sexes | oral |  | NOAEL | 50 mg/kg |
| Cc1ccccc1CN1CCC(O)(c2ccc(Cl)c(C(F)(F)F)c2)CC1 |  | female BALB/c mouse, serum | intraperitoneal, 50 mg/kg |  | intercompartmental clearance | 4.9 mL/min |
